Experimental data collected from several papers.
Compare with care: the assays were run in different laboratories. Numbers after ± are the reported error.
CDK2 with cyclin A2: Cyclin-dependent kinase 2, with cyclin A2 (CDK2, Homo sapiens, UniProt P24941)
CDK2: Cyclin-dependent kinase 2 (CDK2, Homo sapiens, UniProt P24941)
CDK2 with cyclin A: Cyclin-dependent kinase 2, with cyclin A (CDK2, Homo sapiens, UniProt P24941)
CDK2 with cyclin E: Cyclin-dependent kinase 2, with cyclin E (CDK2, Homo sapiens, UniProt P24941)

| SMILES | target | test | conditions | inhibition |
| --- | --- | --- | --- | --- |
| O=C(CCCCCCOc1ccc(Nc2ncc(F)c(-c3cn(C4CCCCC4)nn3)n2)cc1)NO | CDK2 with cyclin A2 | enzyme activity, inhibitor, TR-FRET | 50 nM | -5.79% |
| CC1=CC[C@]2(C(=O)O[C@H]3OC[C@@H](O)[C@@H](O)[C@@H]3OS(=O)(=O)O)CC[C@]3(C)C(CCC4[C@@]5(C)CC[C@H](O)C(C)(C)C5CC[C@]43C)C2[C@H]1C (stereo partly shown) | CDK2 | enzyme activity, inhibitor | 10 µM | 96.2% |
| C#CCSc1nc(Sc2nnnn2-c2ccccc2)c2nnn(Cc3ccccc3Cl)c2n1 | CDK2 with cyclin A2 | enzyme activity, inhibitor | 10 µM | < 15% |
| Nc1nc(Nc2ccccc2)sc1C(=O)c1ccccc1 | CDK2 with cyclin A | enzyme activity, inhibitor | 10 µM | > 90% |
| CC(C)Cn1cc(-c2ccnc(Nc3ccc(OCCCCCCC(=O)NO)cc3)n2)nn1 | CDK2 with cyclin A2 | enzyme activity, inhibitor, TR-FRET | 5 µM | 49.6% |
| Cc1ccc(C(C)C)cc1.Oc1ccccc1C=NNC1=Nc2ccccc2-c2[nH]c3ccc(Br)cc3c2C1.[Cl-].[Cl][Ru+] | CDK2 with cyclin E | enzyme activity, inhibitor, radiometric | 10 µM | 43% |
| CC(C)(C)OC(=O)NCCCNC(=O)c1cc2c(=O)[nH]c3ccccc3c2s1 | CDK2 with cyclin E | – | concentration not given | 6.5% |
| CN1CC[C@H](c2c(O)cc(O)c3c(=O)cc(/C=C/c4c(Cl)cccc4Cl)oc23)[C@H](O)C1 | CDK2 with cyclin A | enzyme activity, inhibitor | 500 nM | 85 ± 0.5% |
| CC(C)Cn1cc(-c2nc(Nc3ccc(OCCCCCCC(=O)NO)cc3)ncc2F)nn1 | CDK2 with cyclin A2 | enzyme activity, inhibitor, TR-FRET | 50 nM | -4.44% |
| O=C(c1ccc2ccccc2c1)c1cn(-c2ccccc2)nc1C1=Nn2c(Cc3nnc4n3N=C(c3nn(-c5ccccc5)cc3C(=O)c3ccc5ccccc5c3)CS4)nnc2SC1 | CDK2 | enzyme activity, inhibitor, ATP luminescence | 10 µM | 94.1% |
